Published values collected from several papers.
Parts stem from different laboratories: compare values within a part only.

Study 1
Target: RNA binding protein fox-1 homolog 2, RRM domain, GST-SBP tag (RBFOX2, Homo sapiens, UniProt O43251-10, residues 100-194)
Technique: RNA Bind-n-Seq
Molecule type: RNA
Sample: in vitro
Concentration: 365 nM
Notes: natural RNA segment, single round, ends assumed
Reference: no-protein control
Direction: higher = stronger binding
Target sequence (chain): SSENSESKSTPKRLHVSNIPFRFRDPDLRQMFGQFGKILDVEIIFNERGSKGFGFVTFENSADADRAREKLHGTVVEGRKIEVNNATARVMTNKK
| Sequence | RBNS enrichment (R) |
| --- | --- |
| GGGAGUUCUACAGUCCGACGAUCGAGCUGUUUAUGGCAAUUUAAUACCAUUCUCUUUGUAAAGUGAAUAAAUAUUCAUCUUUACCCAGUGCUUGUCUUGUGGUAUAUGUAGAGGAAUACAGCCACAUGUUUGGUGGAAUUCUCGGGUGCCAA | 0.799 |
| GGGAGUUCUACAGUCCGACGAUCUCUCCUUAGGGAUGUGUGUGUUCAGUGCAAAGUAAGAAAUAUGAAAAUAUCCCUGUUCUUAGUUACCUUGCCACUUUGGCUUCUCCUGUGGCCCUGCCUUUACCAUAUCAUGGAAUUCUCGGGUGCCAA | 0.305 |
| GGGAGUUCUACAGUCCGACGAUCAAGCAGUGUGUUCAGUAUGCAAAUCAAUUAUUUUAAGAAUCGCUUUUGUAAAUAUCUUUGUGAAUAUUUUAGUAUUGUCUUUGAUAAUAUUCAACAUUUUCAUGACCUGGUGGAAUUCUCGGGUGCCAA | 1.17 |
| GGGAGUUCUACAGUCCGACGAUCAGGGGAGCUGCUGCUGCCUGCUCAUUCUAGCUUCCGAUUCCAUUCCCAGCCCCUGCGUUAAGGUCCCUGGAGAGGUGGCGUCAGUGGGGGUGAGGAAGGGCAUCUUCCUGUGGAAUUCUCGGGUGCCAA | 0.613 |
| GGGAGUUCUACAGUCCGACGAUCCCGCUUCUCAGCGGUCCAUCUCAGCGUCUCCCUUCAGGAACCGCUGAGUGUCCUCUCUUAACAUCCAAGCCUUUUAAUGAAAUCGUACUGAAAUCUGUAUCAGCUAAGAGUGGAAUUCUCGGGUGCCAA | 0.282 |
| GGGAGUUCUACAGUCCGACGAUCUCAAACCUGUGGCCACUCUAUAUGCACUUUGUUUACUCUUUAUACAAAUAAAUAUACUAAAGACUUUCAUGCAUAUGCCUUUUAAUAUUAAGAUUUCAUUUUCAAAGCAUUGGAAUUCUCGGGUGCCAA | 0.788 |
| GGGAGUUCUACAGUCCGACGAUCAACCUCAUUUAUUUAUCUUAAAAUUAACCAGCUUUCUCAGUUCCAUCCAAAGAAGAUACAGUAUGAAAGUAGAGGUGCACUCUCUAUAAUACAAUCUACUGUACAGUUAGUGGAAUUCUCGGGUGCCAA | 0.889 |
| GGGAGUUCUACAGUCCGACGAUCGCAGAAGAUCAAAAUGCUAAAACAUGAUGAUUAGUGCACACCGUGUGCCAUAGAAUGGCACAUGUCAUUGCCCACUUCUGUGUAGACAUGGUUCUGGUUUAACUAAUAUUUGGAAUUCUCGGGUGCCAA | 0.233 |
| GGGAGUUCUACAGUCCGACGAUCGCCAGCCAGUAUCACCAGACCUCUGCUGGACCUAGUCAAGAAGCCCAGUUAACAUGUAGAGCAUGGGCUCAAGAUGAAACCUUGUGUUUAUAGAACGGAUGUUUAGGUGAUGGAAUUCUCGGGUGCCAA | 0.89 |
| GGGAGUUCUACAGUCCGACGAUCUUAGCUGCAUGUCAUCGGCUCAGCAGUGGGAAGGAAAGGGUACUGCUCUGACCUUGUGUAUUCUGACUCUUUGGAAACCAGGCCCUGCUUUUGCCAAGCCUCCCAUCCUGUGGAAUUCUCGGGUGCCAA | 1.47 |
| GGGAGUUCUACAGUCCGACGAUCAAACCAUUGCAUAAAUGCUAUUGUAAAAAAAAUUAAACAAAUGUUAACAACUUUAACAAUUCACUAAGUAAAUGGUUAUGUAUUAUAAAUAUGACCAUCUGGGUUAAGAAUGGAAUUCUCGGGUGCCAA | 0.481 |
| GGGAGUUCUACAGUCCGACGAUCUGUGUACUCAUUCUUUUCCCAAGCUGACGAGGUCUCUCCCGAGUGGCGCUUCGAAAGGCGUGCAUGCAGAAAUGGCCGAGGACAUGCAGGUUUGGGUGGUGUGCCUGCAGUGGAAUUCUCGGGUGCCAA | 11 |

Study 2
Target: Histone acetyltransferase KAT6A, winged helix 1, GST fusion (KAT6A, Homo sapiens, UniProt Q92794, residues 1-85)
Technique: protein binding microarray
Molecule type: double-stranded DNA, one strand shown
Sample: in vitro
Concentration: not given
Notes: 8-mer, flanks averaged, mean of 2 arrays, mostly near background
Reference: not given
Direction: higher = stronger binding
Construct (chain): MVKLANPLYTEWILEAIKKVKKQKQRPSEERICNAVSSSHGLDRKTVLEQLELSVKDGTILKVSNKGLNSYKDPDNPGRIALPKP
| Sequence | E-score |
| --- | --- |
| AGTCTTTA | -0.215 |
| ACGCCAAT | -0.0399 |
| AGTCGCTG | 0.0351 |
| CAAAAGAA | -0.116 |
| CGCTGCTC | 0.0454 |
| ATAAAGGA | -0.181 |
| CGGTGTTC | 0.232 |
| CCCCGCCG | 0.457 |
| GCTCAGCC | 0.0777 |
| GACGTCCA | 0.04 |
| TAACTACA | -0.074 |
| CTCGGCTC | 0.0926 |
| AGGCCGCG | 0.373 |
| GGGTCTTA | 0.0614 |
| ACAGACTG | -0.181 |
| CCACGGCG | 0.401 |
| GGTGGACA | -0.125 |
| ACAATCCT | -0.0967 |

Study 3
Target: Ras GTPase-activating protein-binding protein 1, full length (G3BP1, Homo sapiens, UniProt Q13283)
Chain of UniProt Q13283 (whole entry, looked up): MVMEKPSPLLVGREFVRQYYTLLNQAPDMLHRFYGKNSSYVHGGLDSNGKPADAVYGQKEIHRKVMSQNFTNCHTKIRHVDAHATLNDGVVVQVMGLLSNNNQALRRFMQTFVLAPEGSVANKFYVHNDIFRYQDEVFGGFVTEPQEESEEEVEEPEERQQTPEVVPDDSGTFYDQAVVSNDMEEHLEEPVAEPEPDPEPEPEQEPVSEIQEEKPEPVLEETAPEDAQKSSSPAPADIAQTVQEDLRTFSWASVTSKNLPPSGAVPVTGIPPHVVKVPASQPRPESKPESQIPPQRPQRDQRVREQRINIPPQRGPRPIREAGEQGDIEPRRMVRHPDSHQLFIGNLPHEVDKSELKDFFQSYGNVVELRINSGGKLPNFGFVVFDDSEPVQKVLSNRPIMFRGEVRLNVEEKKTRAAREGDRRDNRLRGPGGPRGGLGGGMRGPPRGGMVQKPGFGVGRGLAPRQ
Technique: RNA Bind-n-Seq
Molecule type: RNA
Sample: in vitro
Concentration: 200 nM
Notes: whole 134-nt RNA, ends assumed
Together with: 150 mM LiCl
Reference: input library
Direction: higher = stronger binding
All molecules: 7-deaza-guanosine replaces G
| Sequence | log2 enrichment |
| --- | --- |
| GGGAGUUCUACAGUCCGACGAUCUAGGAGGUGGAUUUUGUUUAUUUUUUUAGCUCAUUUCCAGGGGUGGGAAUUUUUUUUUAAUAUGUGUCAUGAAUAAAGUUGUUUUUGAAAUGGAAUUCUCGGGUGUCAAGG | 0.0863 |
| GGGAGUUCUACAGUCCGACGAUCAAAGGAAGUAAAAACAAAUGGAAAUGCUUCGGAUAGUGGCAGGGGUGGGGGUUGCUAAGGAAAGGGUGGGAUGGGAGUGGGUAAAGAGUUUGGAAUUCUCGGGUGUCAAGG | 0.0217 |
| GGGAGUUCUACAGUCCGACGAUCCCUCAAGUCCUGUGCUACACAUCGUAUGUACCGAAUCGGGGUGGGUGGGUGGGAAAGUAUUAUGUUACGCCGUUCGGAUCUGCACUUCCAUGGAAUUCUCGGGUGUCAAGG | 0.681 |
| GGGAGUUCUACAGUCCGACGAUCCUCAAGUCCUGUGCUACACAUCGUAUGUACCGAAUCGGGGAAGGAAGGAAGGGGAAAGUAUUAUGUUACGCCGUUCGGAUCUGCACUUCCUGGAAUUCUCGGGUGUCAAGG | -0.26 |
| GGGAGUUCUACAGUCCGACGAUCCCUGUGCUACACAUCGUAUGUACCGAAUCGGAAAAAAGGGGAAAAAAGGGAAAAAAGGGGAAAGUAUUAUGUUACGCCGUUCGGAUCUGCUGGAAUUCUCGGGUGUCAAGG | 0.139 |
| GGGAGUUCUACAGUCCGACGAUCAAGUCCUGUGCUACACAUCGUAUGUACCGAAUCGGUUUUGGGGUUUUGGGUUUUGGAAAGUAUUAUGUUACGCCGUUCGGAUCUGCACUUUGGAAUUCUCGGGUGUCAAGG | -0.526 |
| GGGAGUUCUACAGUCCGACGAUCUCCUGUGCUACACAUCGUAUGUACCGAAUCGGGGUUUGGGGAAAAAGGGGUUUUUGGGGAAAGUAUUAUGUUACGCCGUUCGGAUCUGCAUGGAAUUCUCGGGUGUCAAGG | 0.0519 |
| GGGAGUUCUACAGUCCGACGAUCUCAAGUCCUGUGCUACACAUCGUAUGUACCGAAUCGGAAAGGAAAAAGGAAAGGAAAGUAUUAUGUUACGCCGUUCGGAUCUGCACUUCCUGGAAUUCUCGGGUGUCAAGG | -0.265 |
| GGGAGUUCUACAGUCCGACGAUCUGCGCCAACCUAGGCUUUCUUCUUCCUCUCCUCUUUAUAGGCGGAGUCGAUCUCCCAAAAGGAGAAGGUAGGCCUUCAGUCAUUUGUGAUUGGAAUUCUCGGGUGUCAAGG | -0.388 |
| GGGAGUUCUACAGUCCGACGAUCCCUCAAGUCCUGUGCUACACAUCGUAUGUACCGAAUCGGGGCGGGCGGCGGGGAAAGUAUUAUGUUACGCCGUUCGGAUCUGCACUUCCAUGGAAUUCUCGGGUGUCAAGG | 0.371 |
| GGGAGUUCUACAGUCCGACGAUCACCAUGCAGGUGGGCAUCUUUGGGAAGUGGGGCAAGGGGGGGAUAGGGAGGGGGGUAACAAAAUGGGAACAGGUGGUCCCAGGUCGUUUCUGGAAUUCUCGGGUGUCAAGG | -0.00402 |

Study 4
Target: Interferon regulatory factor 5, full length, phosphomimetic (IRF5, Homo sapiens, UniProt Q13568-2, residues 1-514, S451D/S453D/S456D/S462D)
Technique: protein-binding microarray
Molecule type: double-stranded DNA, one strand shown
Sample: in vitro
Concentration: 940 nM top
Notes: 60-bp whole probe
Together with: salmon DNA 0.4 mg/ml
Reference: random background probes
Direction: higher = stronger binding
All sequences stand within: GCCTAGCAC … GTCTTGATTCGCTTGACGCTGCTG
| Sequence | fitted relative affinity |
| --- | --- |
| TCATTTATAAATTATCTTACTGTGCTA | 0.824 z-score |
| TTAGATTTCGGTTTTCGATTAGTGCTA | 3.77 z-score |
| GACGGTTTCCTTATCGTGACGTGCTAG | 1.55 z-score |
| CTAATTAGAATTTTCATTAAGTGCTAG | 0.0343 z-score |
| CAGAATCCCCTTCTACTCTCGTGCTAG | 0.682 z-score |
| AGACAAGCATTTGGTGATGCGTGCTAG | -0.459 z-score |
| TCAAGTTTAATATCTAAGACTGTGCTA | -0.167 z-score |
| TTAGGGCTCGGTATCGGTTAGTGCTAG | 4.09 z-score |
| GACAGTATCGGGACTGGGGACGTGCTA | 3.55 z-score |
| GACGATATCTGGACTGGAGACGTGCTA | -0.464 z-score |
| TGAAGACTTTCTTTCAAATGGTGCTAG | 0.362 z-score |
| GACGGACTGCTTTTACTGACGTGCTAG | -0.239 z-score |
| TTAGAGATCAGTTTCGATTAGTGCTAG | 8.15 z-score |
| GACGGTTTCCTTATCCTGACGTGCTAG | 1.76 z-score |
| TTAGGTCACCTTATCCTTTAGTGCTAG | 0.156 z-score |
| GACGATTTCGACTTTCGGGACGTGCTA | 1.22 z-score |
| TCACCTTGCATGTTTTTGACTGTGCTA | 0.342 z-score |
| GACGGACTAGACTATCGGGACGTGCTA | -0.123 z-score |
| TCATGTTTTGTTTTTCAACTGTGCTAG | 1.37 z-score |
| TTAGGACTGCTACTGCTTTTGTGCTAG | -0.356 z-score |

Excerpt of the above (study 1):
| Sequence | RBNS enrichment (R) |
| --- | --- |
| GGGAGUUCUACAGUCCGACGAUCGAGCUGUUUAUGGCAAUUUAAUACCAUUCUCUUUGUAAAGUGAAUAAAUAUUCAUCUUUACCCAGUGCUUGUCUUGUGGUAUAUGUAGAGGAAUACAGCCACAUGUUUGGUGGAAUUCUCGGGUGCCAA | 0.799 |
| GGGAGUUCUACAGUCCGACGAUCUCUCCUUAGGGAUGUGUGUGUUCAGUGCAAAGUAAGAAAUAUGAAAAUAUCCCUGUUCUUAGUUACCUUGCCACUUUGGCUUCUCCUGUGGCCCUGCCUUUACCAUAUCAUGGAAUUCUCGGGUGCCAA | 0.305 |
| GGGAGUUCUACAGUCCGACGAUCAAGCAGUGUGUUCAGUAUGCAAAUCAAUUAUUUUAAGAAUCGCUUUUGUAAAUAUCUUUGUGAAUAUUUUAGUAUUGUCUUUGAUAAUAUUCAACAUUUUCAUGACCUGGUGGAAUUCUCGGGUGCCAA | 1.17 |
| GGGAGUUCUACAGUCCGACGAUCAGGGGAGCUGCUGCUGCCUGCUCAUUCUAGCUUCCGAUUCCAUUCCCAGCCCCUGCGUUAAGGUCCCUGGAGAGGUGGCGUCAGUGGGGGUGAGGAAGGGCAUCUUCCUGUGGAAUUCUCGGGUGCCAA | 0.613 |
| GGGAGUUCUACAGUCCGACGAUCCCGCUUCUCAGCGGUCCAUCUCAGCGUCUCCCUUCAGGAACCGCUGAGUGUCCUCUCUUAACAUCCAAGCCUUUUAAUGAAAUCGUACUGAAAUCUGUAUCAGCUAAGAGUGGAAUUCUCGGGUGCCAA | 0.282 |
| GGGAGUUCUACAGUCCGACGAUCUCAAACCUGUGGCCACUCUAUAUGCACUUUGUUUACUCUUUAUACAAAUAAAUAUACUAAAGACUUUCAUGCAUAUGCCUUUUAAUAUUAAGAUUUCAUUUUCAAAGCAUUGGAAUUCUCGGGUGCCAA | 0.788 |
